# Assay results of several laboratories.
# Numbered parts are unrelated; each lists some results of a single study.

# Study 1
# Target: Phosphate system positive regulatory protein PHO4, full length, GST-tagged (PHO4, Saccharomyces cerevisiae, UniProt P07270, residues 1-312)
# Technique: competition protein-binding microarray
# Molecule type: double-stranded DNA, one strand shown
# Matrix: in vitro
# Tested at: 2 µM
# Notes: whole 60-bp probe, lowest competitor level
# Added: Cbf1 competitor, 0.05 µM
# Reading: higher = stronger binding
# All sequences stand within: … GTCTTGATTCGCTTGACGCTGCTG
# Residues (chain): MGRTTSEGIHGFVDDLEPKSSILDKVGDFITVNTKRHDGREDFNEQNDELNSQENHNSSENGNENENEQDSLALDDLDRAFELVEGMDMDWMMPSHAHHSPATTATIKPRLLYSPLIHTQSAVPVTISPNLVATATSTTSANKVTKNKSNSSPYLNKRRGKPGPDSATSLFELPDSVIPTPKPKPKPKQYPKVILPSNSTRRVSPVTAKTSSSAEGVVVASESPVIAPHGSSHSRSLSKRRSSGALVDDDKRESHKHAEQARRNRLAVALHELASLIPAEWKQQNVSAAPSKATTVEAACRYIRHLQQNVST
Oligonucleotide,fluorescence intensity [a.u.]
CTTCTGTAAATTTGCCGAGTGGGTGGACGCGCCCCG,4140
TGCGCAACAACTTGTCACAGGACTTTATGTCTAGAA,3050
ACAGAAACGAAGTATACCGTGCGATTGATTATGGTC,5410
TGCGCAACAACTTGTCCCGTGGGTGTATGTCTAGAA,10000
AAAGCGGTAATTTGTCAAGTGGGTGCAGATATCTAT,4530
TGCGCAACAACTTGGTTGGTGGGTGTATGTCTAGAA,5060
CGTTCACTCATCCATAATTGATAAATTTGCGAAATT,3220
GTCTTGTCTCATTGTAAAGTGGGTGTCCCCACTTCA,4730
CGGGGTTAAGTTTGTCACGTGGGTGGCTTGCAGCAG,17200
CGTCCTAGTGATTTTCACGTGTAGTCCATGAGGAAG,11900
GAACCTCACTGAAGCACCGTGAATAACCCCATAAAT,4320
GAAAGCCTGGTAGGACACGTGATGGCTTGTTCGCCA,15400
CTTTCCCGATCTTACCACGTGTTTTTAGCACATTTG,18300
AAAAACTCCAAGGAACGCGTGTCGGCCGTAATCGTT,8830
CTTTCCCGATCTTGCTCGGTGGGTGTAGCACATTTG,4570
AAATTACTAAGTTGTCACAGAACTTACCCCGTATGA,3160
TTTTGAATTCACCATCACGTTATTACCAGAACAATT,7980
AATCGTTAACACCGTCACCTGTCATTGCGCAGAACT,4510

# Study 2
# Target: RNA binding protein fox-1 homolog 2, RRM domain, GST-SBP tag (RBFOX2, Homo sapiens, UniProt O43251-10, residues 100-194)
# Technique: RNA Bind-n-Seq
# Molecule type: RNA
# Matrix: in vitro
# Tested at: 365 nM
# Notes: natural RNA segment, single round, ends assumed
# Relative to: no-protein control
# Reading: higher = stronger binding
# All sequences stand within: GGGAGUUCUACAGUCCGACGAUC … UGGAAUUCUCGGGUGCCAA
# Construct (chain): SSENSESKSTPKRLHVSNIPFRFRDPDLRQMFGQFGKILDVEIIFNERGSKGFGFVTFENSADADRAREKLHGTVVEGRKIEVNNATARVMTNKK
Oligonucleotide,RBNS enrichment (R)
UCAGGACACUUUACGGGAUCAAAGUGGGUCUACACCAGUGCUGCUUCCUGAAUGUUUGUGUGUGAACCCUUGUUUCCUCCAAAACAAACGACAGCAACGAAAACUCCUUA,0.585
UGCCCAGUGAAAGACCUCAAGUCUGCCUCCAGCCAUGCCCAAGGCAGGAACCCUGGAAGAGAAGCGCACAUUUGGGAAGAGCACAUGCAGAUCCAGGCCUGUGGCUCGGC,0.6
CUGUUCCCCUGCUCUGUUGCCUCUCUAAGGUAACAUUUAUAGAAGAAAUGGAAUGAAUCUCCAAGGCUUUUAGGACUGUCUGAAAAUUUGAGGCUGGGUGAAGUUAAAAC,0.49
AUAGAAAUAUUUGGGUUUAGAGCAUCUCAAAAGUGGGUAGAAUGUCCUUUGGGAUUUUGUUGCUCCGUUUAAACCAGGUGUAUUGUGACAUGAACAUGACUUUCCUAAAG,2.17
UUUGAAGAUCUGUCCAUAUUCAGGAAUCUGAGAGUGUUAAAAAAAGGUACCAAUCAUUGAUUUUUCUUUUGUAAACUAAAACGUUUAAAAUAAAAUAGCAUUUACAGUUU,0.582
GAGUCUGCCUGUUUCUGCUAGCUCCGUGUUUAGUCCACUUGGGUCAUCAGCUCUGCCAAGCUGAGCCUGGCCAAGCUAGGUGGACAGACCCUUGCAGUGAUGUCCGUUUG,0.808
CCAUGGAAACUGAGUGAUGGUUUGAAAUGAAGACUUUGUCGUGUACUUAGGAAGUAAAUAUCUUUUGAAUUAGAGAAAGUGUUGGGACAGAAAGUACUUUAUGUAACUAA,0.359
AGUUCCUCACAUACAGGACUUUUUAAGCAACACCACAUCUUGUGCUUCUUUGUAGCAGGGUAAAUCGUCCUGUCAAAGGGAGUUGCUGGAAUAAUGGGCCAAACAUCUGG,0.277
UUAUAACCUAUCUUAGAGAAAUGAGUGCUGGUUUUGAGAGUUGUUUUUUAACUGAAAGAUUAUUUCUAGAUGGGUAGUGCUUUGUGCUGGUUUCUGCUUCCAUAUAUUUC,0.571
AAGACGUGAGUAGAGCUAGGUUGGGCAGAUGGACAGGUGGCAAUAGUAAGCUUAUCCGAAGCCUACAGUGAGAAACCAUGUAGGCUUCUUGCCCGUUUCUAAUCACCAUU,0.474
UUUGCCUGGCUCUGCUCUUUAGACUCCAGAUCCCUACCCCUCAGCAACUAGCUCCCCUGUCGGCCAGCUAAGAGAGCUGGGACAGUGGAGGCUGGCAGAAGCUGAGACGU,0.317
GUGGCAUGGAGCUUGUGUCCUUGGACAACAAAUCUGGAUAUACUAGGAUUAAUUAUCAGAAGACAGCUCAGGCCAAGUUUUGAUCGUUCCAUACAGUACCUUGUUUAUCU,0.534

# Study 3
# Target: Max dimerization protein 1, bHLH-zipper, MAX partner unstated (MXD1, Homo sapiens, UniProt Q05195, residues 56-136)
# Technique: protein-binding microarray
# Molecule type: double-stranded DNA, one strand shown
# Matrix: in vitro
# Tested at: not given
# Notes: k-mer, scored over probes, only values ≥0.25
# Reading: higher = stronger binding
# Construct (chain): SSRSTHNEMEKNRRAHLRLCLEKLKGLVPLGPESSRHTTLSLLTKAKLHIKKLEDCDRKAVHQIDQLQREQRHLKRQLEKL
Oligonucleotide,E-score
TGCGCACA,0.313
ACATTGTG,0.285
CCGCCACC,0.275
CACGTGGA,0.49
CGACACGC,0.355
CCCCCATC,0.291
CCCCCCTC,0.325
CCATGAGA,0.336
ACACGCGT,0.446
TGCGTCCA,0.273
ACACGTTG,0.408
ACCCCACG,0.271
CCTCCTCC,0.3
ACACGCCA,0.252
CTGCCCAC,0.279
ATCCCACG,0.34
CCCACCAC,0.292
GCTAACCA,0.254
CCCCCCAC,0.294

# Study 4
# Target: Interferon regulatory factor 5, full length, phosphomimetic (IRF5, Homo sapiens, UniProt Q13568-2, residues 1-514, K96S/S451D/S453D/S456D/S462D)
# Technique: protein-binding microarray
# Molecule type: double-stranded DNA, one strand shown
# Matrix: in vitro
# Tested at: 250 nM
# Notes: 60-bp whole probe
# Added: salmon DNA 0.4 mg/ml
# Relative to: random background probes
# Reading: higher = stronger binding
# All sequences stand within: GCCTAGCAC … GTCTTGATTCGCTTGACGCTGCTG
Oligonucleotide,log fluorescence
GACCGTATCCTACTGCTGACGTGCTAG,-0.0561 z-score
TCATGCCTGTTTTTCCCACTGTGCTAG,0.433 z-score
TCATCTTCAGGTTCTCCCACTGTGCTA,0.326 z-score
GACGGTCTCGGTCTCGTGACGTGCTAG,0.0699 z-score
TTAGGTATCGACACTGGGTCAGTGCTA,2.23 z-score
TATTTTCTGAATGTCTTCCCGTGCTAG,1.94 z-score
TTAAGTCTCGGTTTCGGTTAGTGCTAG,9.4 z-score
GACGGTATCGACACTGGGGTCGTGCTA,1.95 z-score
TTAGGCATCGGGACTGGGTTAGTGCTA,-0.498 z-score
TTCGGTTTCCTTTTCCTTTAGTGCTAG,3.05 z-score
AGATATTTAGAACTTCTCCACGTGCTA,0.442 z-score
TGAGGTTTCGACACTGGGTTAGTGCTA,3.6 z-score
TTAGGTATCGACACTGAGTTAGTGCTA,2.56 z-score
GCCGATTTCAGTATCGAGACGTGCTAG,4.29 z-score
GACGGACGGGGTTTCGGGACGTGCTAG,1.46 z-score
GACGGTCTCCATCTCCTGACGTGCTAG,-0.249 z-score
TTGGAACTGGGGACTGGATTAGTGCTA,-0.524 z-score
GGCGAACTGAGTCTCGAGACGTGCTAG,-0.414 z-score
TTAGGTTTCCTACTGCTTAAGTGCTAG,0.567 z-score
GACGGACTGGGGTTTCGCGACGTGCTA,-0.298 z-score
GACGGACTTGACACTGGGGACGTGCTA,-0.524 z-score
TTAGGACTGGGTCTCGGTGAGTGCTAG,-0.522 z-score
TTAGGTCTGGGGACTGGGTTAGTGCTA,-0.474 z-score
TTAGGACTGCTTTTGCTTTAGTGCTAG,0.52 z-score
GACGATATCAGTATGGAGACGTGCTAG,1.15 z-score
